{"data": "Assay results gathered from unrelated publications", "note": "A part holds a random share of what one study measured. Positions count from the first letter of the parent shown.", "sequence of UniProt Q9M1R4 (whole entry, looked up)": "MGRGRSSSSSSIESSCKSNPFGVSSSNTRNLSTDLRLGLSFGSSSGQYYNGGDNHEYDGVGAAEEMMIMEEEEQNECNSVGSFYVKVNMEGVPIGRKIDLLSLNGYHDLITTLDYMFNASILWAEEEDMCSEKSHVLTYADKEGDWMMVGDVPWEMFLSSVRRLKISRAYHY", "sequence of UniProt Q9C5X0 (whole entry, looked up)": "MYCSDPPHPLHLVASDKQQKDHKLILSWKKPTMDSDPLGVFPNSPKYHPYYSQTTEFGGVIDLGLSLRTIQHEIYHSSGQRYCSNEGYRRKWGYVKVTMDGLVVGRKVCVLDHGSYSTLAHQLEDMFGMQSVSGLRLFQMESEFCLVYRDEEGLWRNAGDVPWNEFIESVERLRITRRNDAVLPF", "sequence of UniProt Q9C7I9 (whole entry, looked up)": "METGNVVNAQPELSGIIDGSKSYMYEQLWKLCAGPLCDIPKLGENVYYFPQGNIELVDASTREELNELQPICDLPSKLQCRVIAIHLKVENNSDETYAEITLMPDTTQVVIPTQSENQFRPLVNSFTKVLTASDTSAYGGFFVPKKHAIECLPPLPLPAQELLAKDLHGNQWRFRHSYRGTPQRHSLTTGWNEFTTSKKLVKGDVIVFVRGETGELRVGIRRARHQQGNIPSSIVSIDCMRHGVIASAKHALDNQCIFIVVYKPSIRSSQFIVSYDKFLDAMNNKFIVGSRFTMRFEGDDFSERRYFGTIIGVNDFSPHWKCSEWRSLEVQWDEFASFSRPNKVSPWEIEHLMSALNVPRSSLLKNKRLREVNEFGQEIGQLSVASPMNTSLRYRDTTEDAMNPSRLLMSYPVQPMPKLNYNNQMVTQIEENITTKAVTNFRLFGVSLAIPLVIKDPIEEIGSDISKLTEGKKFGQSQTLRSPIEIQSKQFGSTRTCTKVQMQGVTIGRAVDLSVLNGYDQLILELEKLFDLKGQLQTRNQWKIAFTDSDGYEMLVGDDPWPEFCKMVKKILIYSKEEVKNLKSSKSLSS", "sequence of UniProt Q9FKM7 (whole entry, looked up)": "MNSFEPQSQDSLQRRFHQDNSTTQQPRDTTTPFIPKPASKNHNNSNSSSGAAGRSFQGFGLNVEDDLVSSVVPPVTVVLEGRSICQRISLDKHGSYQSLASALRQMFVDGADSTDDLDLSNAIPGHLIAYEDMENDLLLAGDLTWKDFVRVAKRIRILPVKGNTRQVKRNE", "sequence of UniProt Q9FGV1 (whole entry, looked up)": "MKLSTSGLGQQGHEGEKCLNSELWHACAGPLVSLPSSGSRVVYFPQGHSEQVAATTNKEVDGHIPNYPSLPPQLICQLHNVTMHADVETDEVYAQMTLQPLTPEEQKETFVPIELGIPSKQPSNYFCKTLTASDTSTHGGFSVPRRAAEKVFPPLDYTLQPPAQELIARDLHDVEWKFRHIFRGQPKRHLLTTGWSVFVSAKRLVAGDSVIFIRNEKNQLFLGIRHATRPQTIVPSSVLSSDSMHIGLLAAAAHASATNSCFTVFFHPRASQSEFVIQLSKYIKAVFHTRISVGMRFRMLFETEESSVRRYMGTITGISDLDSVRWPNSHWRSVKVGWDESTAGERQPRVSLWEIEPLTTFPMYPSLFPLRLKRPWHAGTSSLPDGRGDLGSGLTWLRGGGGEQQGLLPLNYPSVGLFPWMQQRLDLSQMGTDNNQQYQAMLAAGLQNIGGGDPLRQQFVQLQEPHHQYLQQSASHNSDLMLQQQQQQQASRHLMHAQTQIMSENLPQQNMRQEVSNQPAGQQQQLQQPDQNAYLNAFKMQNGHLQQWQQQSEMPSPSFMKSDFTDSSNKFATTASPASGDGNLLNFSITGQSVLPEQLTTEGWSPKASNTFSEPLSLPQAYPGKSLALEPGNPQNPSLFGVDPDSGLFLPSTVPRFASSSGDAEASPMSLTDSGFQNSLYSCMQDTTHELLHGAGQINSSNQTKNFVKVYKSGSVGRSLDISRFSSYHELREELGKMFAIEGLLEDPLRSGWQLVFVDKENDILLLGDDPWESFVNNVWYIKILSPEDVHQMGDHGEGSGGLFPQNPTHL"}
{"data": "Set 1", "target": "RING finger protein unkempt homolog, zinc fingers 1-6, GST-SBP tag (UNK, Homo sapiens, UniProt Q9C0B0, residues 30-357)", "technique": "RNA Bind-n-Seq", "molecule type": "RNA", "medium": "in vitro", "tested at": "not given", "notes": "RNA with constant flanks, human and mouse sites, ends assumed", "baseline": "input RNA pool", "reading": "higher = stronger binding", "all sequences stand within": "GGGAGUUCUACAGUCCGACGAUC … CAACAGAGGAUUGAGCAUCA", "Target sequence (chain)": "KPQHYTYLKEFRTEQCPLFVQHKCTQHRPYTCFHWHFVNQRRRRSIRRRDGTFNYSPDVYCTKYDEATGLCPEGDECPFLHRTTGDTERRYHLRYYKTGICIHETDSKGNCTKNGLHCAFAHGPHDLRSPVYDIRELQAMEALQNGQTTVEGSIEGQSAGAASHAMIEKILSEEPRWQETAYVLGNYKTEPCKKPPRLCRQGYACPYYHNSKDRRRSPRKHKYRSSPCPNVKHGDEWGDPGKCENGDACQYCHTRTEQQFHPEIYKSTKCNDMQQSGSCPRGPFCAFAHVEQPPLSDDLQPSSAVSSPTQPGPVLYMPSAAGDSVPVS"}
{"Oligonucleotide": "GAAAAUUUGCAUGCAGCAGCUUACCGGAAUGCCUUGGCUAAUCCCUUGUAUUGUCCUGACUAUAGGAUUGGAAAAGUGACAUCAGAGGAGUUACAUUACUUCGUUCAGAACCAUUUCACA", "bound/input enrichment [ratio]": 0.306}
{"Oligonucleotide": "AAAAACAAAAUUAAAAGCUAUUCAAUUCUGCAUGGAAUAUAUCUGCUGUCAUCUUAAUCUUAGUUUGGAUCAACCUCAUUUAUUUAUCUUAAAAUUAACCAGCUUUCUCAGUUCCAUCCA", "bound/input enrichment [ratio]": 2.45}
{"Oligonucleotide": "CAGGGUCCUAAGACUAUUGAUCAAAUUCACAAGGAGGCUGAGAUGGAAGAGCACCGAGAACAUAUUAAAGUACAGCAGCUCAUGGCCAAGGGCAGCGACAAACGUCGGGGUGGCCCUCCA", "bound/input enrichment [ratio]": 0.171}
{"Oligonucleotide": "UAUUACAUCACUGAACUAAAAUAUGGAGACAUCCUCAUUGAAAAUGGAGGGCACUCUAUCAGUCUAUAACUAUCAACGUAGUGCAACAGGGUGUUUUGAUACCUUUGUUUUCACCUCUUG", "bound/input enrichment [ratio]": 0.203}
{"Oligonucleotide": "CCAGAGUAUGUCCUGGCCUAUAUUGACUAUCUUUCUCACCUCAAUGAGGACAAUAAUACCCGAGUUUUGUUUGAACGAGUUUUAACAUCUGGAAGCCUUCCUCCUGAGAAGUCUGGAGAA", "bound/input enrichment [ratio]": 0.318}
{"Oligonucleotide": "GGACCCCGUACCCCUCAUAGGGUGCCGGGUCCCUGGGGCCCUCCUGAGCCUCUCCUGCUCUACAGGGCAGCCCCGCCAGCCUACGGAAGGGGGGGCGAGCUCCACCGAGGGUCCUUGUAC", "bound/input enrichment [ratio]": 0.0998}
{"Oligonucleotide": "UUGUAUUGUUGAUGAUAAGUGUUGACAUUGGGUAGUGUAGAAGCAACAAGCAUGUCCUUGUAGUACAGGUACAGUGAAGGAUAGAACACACUUUCGUUGAUACAAAAAUUUAAAUAGUUA", "bound/input enrichment [ratio]": 1.34}
{"Oligonucleotide": "CCGCUUUUUGCCGCGAGCCGACCGGUCCCGUCAUGCCGACCCGCAGUCCCAGCGUCGUGAUUAGCGAUGAUGAACCAGGUUAUGACCUAGAUUUGUUUUGUAUACCUAAUCAUUAUGCCG", "bound/input enrichment [ratio]": 0.137}
{"Oligonucleotide": "CAGCUGGAAGAUGGCCGCACCCUGUCAGACUACAACAUCCAGAAAGAGUCCACCCUGCACUUAGUCCUUCGCCUCAGAGGUGGGAUGCAGAUCUUUGUGAAGACCCUGACAGGCAAAACC", "bound/input enrichment [ratio]": 0.168}
{"Oligonucleotide": "UAUGAACCACCUCUGUCCCAUACUCCCACUGCUGCCUCCUCAGCCAUUAUAGAUUGUAUCCUCUGAAACCGUGAGCCAAAAUAAACCUUACCUCCCUUGAGUUGUUUCUGUCAUGUGUUU", "bound/input enrichment [ratio]": 1.21}
{"Oligonucleotide": "GCCAUGACGCUGAAUGAGAGCAACAUCUCUGCUGUCACCGGACUUAUCCGAUGUCAGUUAAUAGAGGGGCAGUUGCAAGAUGCAGACCAGCAGUUGGAGUUCUUCAGUGAAUUCCAGCAG", "bound/input enrichment [ratio]": 0.208}
{"data": "Set 2", "target": "CCND2, cyclin fold, Cln2 fusion (human)", "technique": "yeast growth competition, sequencing", "medium": "yeast", "notes": "weak parent motif", "baseline": "not given", "reading": "higher = stronger binding", "starting sequence": "RBL1 docking peptide (human); GSAKRRLFGEDPP"}
{"Change": "R5Q", "normalised enrichment score": 0.14}
{"Change": "K4A", "normalised enrichment score": 0.639}
{"Change": "L7G", "normalised enrichment score": 0.0882}
{"Change": "K4Y", "normalised enrichment score": 0.284}
{"Change": "K4G", "normalised enrichment score": 0.157}
{"Change": "A3D", "normalised enrichment score": -0.052}
{"Change": "F8C", "normalised enrichment score": 0.133}
{"Change": "R5E", "normalised enrichment score": 0.042}
{"Change": "A3V", "normalised enrichment score": 0.223}
{"Change": "P13C", "normalised enrichment score": 0.152}
{"Change": "P12H", "normalised enrichment score": 0.199}
{"Change": "P12G", "normalised enrichment score": 0.176}
{"Change": "G1T", "normalised enrichment score": 0.35}
{"Change": "G9P", "normalised enrichment score": 0.184}
{"Change": "L7H", "normalised enrichment score": 0.124}
{"Change": "E10Y", "normalised enrichment score": 0.143}
{"Change": "R6D", "normalised enrichment score": -0.306}
{"Change": "D11Y", "normalised enrichment score": 0.387}
{"Change": "G1D", "normalised enrichment score": 0.202}
{"Change": "L7F", "normalised enrichment score": 0.00706}
{"Change": "A3Y", "normalised enrichment score": 0.0569}
{"Change": "P13S", "normalised enrichment score": -0.011}
{"Change": "E10F", "normalised enrichment score": 0.201}
{"Change": "R6T", "normalised enrichment score": -0.155}
{"Change": "R6V", "normalised enrichment score": 0.0644}
{"data": "Set 3", "Molecule": "B1 (IAA1)", "technique": "two-hybrid", "reading": "higher = firmer interaction", "B1": "IAA1 (Arabidopsis thaliana, UniProt P49677); chain MEVTNGLNLKDTELRLGLPGAQEEQQLELSCVRSNNKRKNNDSTEESAPPPAKTQIVGWPPVRSNRKNNNNKNVSYVKVSMDGAPYLRKIDLKMYKNYPELLKALENMFKFTVGEYSEREGYKGSGFVPTYEDKDGDWMLVGDVPWDMFSSSCQKLRIMKGSEAPTAL"}
{"partner": "IAA17 (Arabidopsis thaliana, UniProt P93830)", "baseline": "out of 4 tests", "positive tests": 4}
{"partner": "IAA30 (Arabidopsis thaliana, UniProt Q9M1R4)", "notes": "weak activation fusion", "baseline": "out of 4 tests", "positive tests": 2}
{"partner": "IAA7 (Arabidopsis thaliana, UniProt Q38825)", "baseline": "out of 2 tests", "positive tests": 2}
{"partner": "IAA33 (Arabidopsis thaliana, UniProt Q9FKM7)", "baseline": "out of 4 tests", "positive tests": 0}
{"partner": "ARF20 484-590 (Arabidopsis thaliana, UniProt Q9C7I9)", "baseline": "out of 4 tests", "positive tests": 1}
{"partner": "IAA14 (Arabidopsis thaliana, UniProt Q38832)", "baseline": "out of 4 tests", "positive tests": 3}
{"partner": "IAA34 (Arabidopsis thaliana, UniProt Q9C5X0)", "baseline": "out of 4 tests", "positive tests": 4}
{"partner": "ARF8 699-811 (Arabidopsis thaliana, UniProt Q9FGV1)", "baseline": "out of 4 tests", "positive tests": 3}
{"partner": "IAA4 (Arabidopsis thaliana, UniProt P33077)", "baseline": "out of 4 tests", "positive tests": 3}
{"data": "Set 4", "target": "ABI1, truncated, D143A, DHFR fusion (Arabidopsis thaliana)", "technique": "DHFR PCA, deep sequencing", "medium": "yeast", "notes": "methotrexate growth selection, single substitutions", "together with": "(+)-ABA 17 µM", "baseline": "wild-type fitted maximum", "reading": "higher = stronger binding", "starting sequence": "PYL1, truncated, DHFR fusion (Arabidopsis thaliana); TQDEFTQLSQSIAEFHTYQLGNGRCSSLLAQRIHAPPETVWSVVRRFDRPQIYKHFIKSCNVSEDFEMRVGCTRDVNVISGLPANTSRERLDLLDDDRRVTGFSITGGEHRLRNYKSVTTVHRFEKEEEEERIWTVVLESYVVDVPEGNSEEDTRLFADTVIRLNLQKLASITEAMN"}
{"Change": "Q2R", "relative binding score": "80.6%"}
{"Change": "T73Q", "relative binding score": "80.4%"}
{"Change": "H34K", "relative binding score": "89.9%"}
{"Change": "D96S", "relative binding score": "9.97%"}
{"Change": "I172H", "relative binding score": "55.3%"}
{"Change": "D48Q", "relative binding score": "11.4%"}
{"Change": "P37T", "relative binding score": "60.2%"}
{"Change": "E129V", "relative binding score": "86.4%"}
{"Change": "Q19P", "relative binding score": "81%"}
{"Change": "S63C", "relative binding score": "82.4%"}
{"Change": "S63V", "relative binding score": "76.7%"}
{"Change": "H55C", "relative binding score": "96.1%"}
{"Change": "H34N", "relative binding score": "87%"}
{"Change": "R45W", "relative binding score": "8.77%"}
{"Change": "S171I", "relative binding score": "76.8%"}
{"Change": "H16F", "relative binding score": "-25.7%"}
{"Change": "D97G", "relative binding score": "80%"}
{"Change": "K54Q", "relative binding score": "0.741%"}
{"Change": "F47Q", "relative binding score": "-36.8%"}
{"note": "For quick reference, copied from above (set 2):"}
{"Change": "R5Q", "normalised enrichment score": 0.14}
{"Change": "K4A", "normalised enrichment score": 0.639}
{"Change": "L7G", "normalised enrichment score": 0.0882}
{"Change": "K4Y", "normalised enrichment score": 0.284}
{"Change": "K4G", "normalised enrichment score": 0.157}
{"Change": "A3D", "normalised enrichment score": -0.052}
{"Change": "F8C", "normalised enrichment score": 0.133}
{"Change": "R5E", "normalised enrichment score": 0.042}
{"Change": "A3V", "normalised enrichment score": 0.223}
{"Change": "P13C", "normalised enrichment score": 0.152}
{"Change": "P12H", "normalised enrichment score": 0.199}
